Experimental data collected from several papers.
Lines come from different studies, so protocols differ. ± gives the spread as reported. Values after ≈ are worked out from the molar mass of the structure shown.
IGHG1: Immunoglobulin heavy constant gamma 1 (IGHG1, Homo sapiens, UniProt P01857)
Chain of UniProt P18031 (whole entry, looked up): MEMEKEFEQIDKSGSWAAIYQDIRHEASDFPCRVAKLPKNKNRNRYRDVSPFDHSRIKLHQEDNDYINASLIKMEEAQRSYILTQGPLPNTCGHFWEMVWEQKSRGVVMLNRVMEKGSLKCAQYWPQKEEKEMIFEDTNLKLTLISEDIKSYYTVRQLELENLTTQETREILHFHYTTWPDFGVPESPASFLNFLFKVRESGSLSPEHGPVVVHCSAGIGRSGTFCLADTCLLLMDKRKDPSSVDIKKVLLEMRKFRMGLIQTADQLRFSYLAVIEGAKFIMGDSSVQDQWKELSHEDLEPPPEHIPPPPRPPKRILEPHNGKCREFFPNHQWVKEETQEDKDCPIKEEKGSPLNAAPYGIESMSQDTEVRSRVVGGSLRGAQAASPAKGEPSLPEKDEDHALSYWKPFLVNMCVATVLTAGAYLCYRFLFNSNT
Chain of UniProt P22303 (whole entry, looked up): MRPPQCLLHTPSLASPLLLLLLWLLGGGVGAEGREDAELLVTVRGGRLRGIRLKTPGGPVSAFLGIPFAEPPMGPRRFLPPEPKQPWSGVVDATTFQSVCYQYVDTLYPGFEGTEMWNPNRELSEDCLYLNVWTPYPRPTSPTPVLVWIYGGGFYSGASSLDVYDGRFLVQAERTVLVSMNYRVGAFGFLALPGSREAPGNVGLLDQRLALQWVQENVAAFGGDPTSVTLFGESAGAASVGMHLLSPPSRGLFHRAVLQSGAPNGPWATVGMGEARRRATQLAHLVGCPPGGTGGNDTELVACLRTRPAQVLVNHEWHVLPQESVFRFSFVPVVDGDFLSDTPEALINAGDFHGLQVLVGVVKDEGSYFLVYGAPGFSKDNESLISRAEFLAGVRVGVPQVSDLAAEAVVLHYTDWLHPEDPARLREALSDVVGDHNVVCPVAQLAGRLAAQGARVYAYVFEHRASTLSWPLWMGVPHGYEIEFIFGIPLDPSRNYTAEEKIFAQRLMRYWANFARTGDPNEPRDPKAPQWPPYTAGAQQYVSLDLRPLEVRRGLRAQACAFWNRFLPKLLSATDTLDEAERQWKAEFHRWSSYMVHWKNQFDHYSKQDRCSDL
Chain of UniProt P31652 (whole entry, looked up): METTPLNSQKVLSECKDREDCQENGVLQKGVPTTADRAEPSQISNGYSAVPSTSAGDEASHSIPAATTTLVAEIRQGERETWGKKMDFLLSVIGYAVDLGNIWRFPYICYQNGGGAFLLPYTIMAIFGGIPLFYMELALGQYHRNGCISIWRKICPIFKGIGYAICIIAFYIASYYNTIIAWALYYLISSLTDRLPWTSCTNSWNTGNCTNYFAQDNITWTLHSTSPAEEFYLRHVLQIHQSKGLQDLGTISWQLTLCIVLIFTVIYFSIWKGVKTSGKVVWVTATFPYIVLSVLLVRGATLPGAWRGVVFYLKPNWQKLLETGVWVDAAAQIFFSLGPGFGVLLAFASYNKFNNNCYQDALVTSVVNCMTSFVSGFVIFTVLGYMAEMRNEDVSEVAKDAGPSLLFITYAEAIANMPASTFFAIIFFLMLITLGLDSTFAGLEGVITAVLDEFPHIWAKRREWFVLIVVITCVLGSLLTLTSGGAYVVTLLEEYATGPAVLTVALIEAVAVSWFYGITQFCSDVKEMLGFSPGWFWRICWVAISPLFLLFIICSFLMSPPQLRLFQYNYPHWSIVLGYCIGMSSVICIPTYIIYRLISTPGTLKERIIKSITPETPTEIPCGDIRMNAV
Chain of UniProt P37136 (whole entry, looked up): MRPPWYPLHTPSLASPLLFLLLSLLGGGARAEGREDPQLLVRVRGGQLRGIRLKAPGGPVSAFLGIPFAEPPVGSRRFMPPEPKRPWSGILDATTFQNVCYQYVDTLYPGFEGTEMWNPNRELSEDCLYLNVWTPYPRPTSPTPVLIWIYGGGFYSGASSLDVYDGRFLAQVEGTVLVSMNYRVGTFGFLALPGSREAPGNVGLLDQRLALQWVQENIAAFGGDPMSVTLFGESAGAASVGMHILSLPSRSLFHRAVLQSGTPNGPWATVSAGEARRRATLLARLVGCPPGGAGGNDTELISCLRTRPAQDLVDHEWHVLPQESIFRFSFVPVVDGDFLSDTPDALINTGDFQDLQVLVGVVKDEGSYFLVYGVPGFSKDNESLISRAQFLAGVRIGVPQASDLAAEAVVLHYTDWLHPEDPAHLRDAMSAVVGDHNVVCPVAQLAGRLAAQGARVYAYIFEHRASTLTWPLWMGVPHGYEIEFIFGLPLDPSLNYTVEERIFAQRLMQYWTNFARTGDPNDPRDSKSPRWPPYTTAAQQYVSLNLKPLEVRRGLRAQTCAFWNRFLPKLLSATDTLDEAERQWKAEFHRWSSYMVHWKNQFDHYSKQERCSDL
Chain of UniProt P16732 (whole entry, looked up): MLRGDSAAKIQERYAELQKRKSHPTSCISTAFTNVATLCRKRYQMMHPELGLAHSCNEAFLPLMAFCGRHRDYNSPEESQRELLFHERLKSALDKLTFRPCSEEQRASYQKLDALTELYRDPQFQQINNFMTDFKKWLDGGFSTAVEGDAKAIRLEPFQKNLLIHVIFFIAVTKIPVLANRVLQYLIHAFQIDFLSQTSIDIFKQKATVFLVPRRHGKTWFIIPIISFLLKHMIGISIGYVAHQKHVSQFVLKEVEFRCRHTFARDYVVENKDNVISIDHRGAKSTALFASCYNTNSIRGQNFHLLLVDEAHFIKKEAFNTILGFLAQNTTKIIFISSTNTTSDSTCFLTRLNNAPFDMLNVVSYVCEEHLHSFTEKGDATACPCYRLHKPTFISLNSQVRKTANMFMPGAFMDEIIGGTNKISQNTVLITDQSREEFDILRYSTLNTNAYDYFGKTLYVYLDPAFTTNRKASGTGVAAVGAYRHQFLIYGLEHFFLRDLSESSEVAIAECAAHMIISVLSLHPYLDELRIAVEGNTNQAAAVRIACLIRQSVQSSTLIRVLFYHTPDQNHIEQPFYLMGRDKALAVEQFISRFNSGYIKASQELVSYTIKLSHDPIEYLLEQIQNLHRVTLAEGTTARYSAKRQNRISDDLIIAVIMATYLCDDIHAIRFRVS
Chain of UniProt P47746 (whole entry, looked up): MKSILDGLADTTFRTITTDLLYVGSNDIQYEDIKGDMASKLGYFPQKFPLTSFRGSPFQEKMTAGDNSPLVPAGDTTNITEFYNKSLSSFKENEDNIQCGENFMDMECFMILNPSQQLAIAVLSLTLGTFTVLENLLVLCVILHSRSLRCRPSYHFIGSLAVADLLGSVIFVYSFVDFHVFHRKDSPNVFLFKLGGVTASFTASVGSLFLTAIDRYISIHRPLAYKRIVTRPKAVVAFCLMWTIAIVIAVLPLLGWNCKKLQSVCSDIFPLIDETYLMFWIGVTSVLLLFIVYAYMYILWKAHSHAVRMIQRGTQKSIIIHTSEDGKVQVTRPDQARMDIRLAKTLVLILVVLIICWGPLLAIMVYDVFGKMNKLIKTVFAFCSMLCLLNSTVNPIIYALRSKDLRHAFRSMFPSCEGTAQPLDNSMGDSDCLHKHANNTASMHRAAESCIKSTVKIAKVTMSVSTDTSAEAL

| Structure (SMILES) | target or system | test | system | conditions | scale | measurement | value |
| --- | --- | --- | --- | --- | --- | --- | --- |
| CCOP(=O)(OCC)Oc1nc(Cl)c(Cl)cc1Cl | Ache (Rattus norvegicus, UniProt P37136) | inhibitor | – | – | – | IC50 | 0.036 µM |
| C[C@H]1[C@@H](CC(C[C@H]2O[C@@H]3C[C@]4(C)CC[C@H]5[C@H](C)CC[C@@H]([C@H]2C)[C@@]35OO4)CS(=O)(=O)c2ccc(CO)cc2)O[C@@H]2C[C@]3(C)CC[C@H]4[C@H](C)CC[C@@H]1[C@@]24OO3 (stereo partly shown) | Plasmodium berghei | – | ANKA, infected mice | oral, 144 mg/kg single dose | – | mean survival time | 30 days |
| CC[C@H](C)[C@H](NC(=O)[C@H](CCCCN)NC(=O)[C@H](CCC(N)=O)NC(=O)[C@H](Cc1ccccc1)NC(=O)[C@@H](NC(=O)[C@H](CCCCN)NC(=O)[C@H](CCCCN)NC(=O)[C@H](CC(C)C)NC(=O)[C@H](C)NC(=O)[C@H](CC(N)=O)NC(=O)[C@@H](N)CC(C)C)C(C)C)C(=O)N[C@@H](Cc1c[nH]cn1)C(=O)N[C@@H](CCC(=O)O)C(=O)N[C@@H](C)C(N)=O | Staphylococcus aureus | broth microdilution | ATCC 25923 | 18 h, 37 °C | – | MIC | 16 µM (≈ 26.2 µg/mL) |
| CC(=O)NCC(=O)N[C@@H](C)C(=O)N[C@@H](CC(=O)O)C(=O)N[C@H]1CSSC[C@@H](C(=O)N[C@H](C(=O)N[C@@H](Cc2ccccc2)C(=O)N[C@@H](Cc2c[nH]cn2)C(N)=O)[C@@H](C)O)NC(=O)[C@H](Cc2c[nH]c3ccccc23)NC(=O)[C@H](C(C)C)NC(=O)[C@H](CC(C)C)NC(=O)[C@H](CCC(=O)O)NC(=O)CNC(=O)[C@H](CCCCN)NC(=O)[C@H](Cc2c[nH]cn2)NC(=O)[C@H](Cc2ccc(O)cc2)NC(=O)[C@H](C)NC1=O | IGHG1 | binding, SPR | – | pH 7.4, with: immobilized Herceptin | – | Kd | 314 ± 10 nM |
| C[C@H](N)C(=O)c1ccccc1 | Slc6a4 (Rattus norvegicus, UniProt P31652) | serotonin uptake | rat brain synaptosomes | with: [3H]5-HT 5 nM | – | IC50 | > 10 µM |
| Cn1c(Sc2cccc(Cl)c2)cc(=O)n(O)c1=O | Tripartite terminase subunit 3, C-terminal nuclease domain (Human betaherpesvirus 5, UniProt P16732) | endonuclease activity, ELISA | – | – | – | IC50 | 26 ± 2.6 µM |
| CCCCCc1cc(O)c2c(c1)OC(C)(C)[C@@H]1CCC(C)=C[C@@H]21 | Cnr1 (Mus musculus, UniProt P47746) | G-protein activation, agonist | mouse brain homogenate | – | – | EC50 | 77 ± 29.9 nM |
| COc1cc2c(c(OC)c1OC)-c1ccc(OC)c(=O)cc1[C@@H](NC(C)=O)CC2 | tubulin | tubulin polymerization, absorbance | – | 10 µM, 1 h, 37 °C | relative to: untreated | Vmax change | ~3.5 fold |
| CCCC[C@H]1NC(=O)[C@H](Cc2ccc(F)cc2)NC(=O)[C@H](CCCNC(=N)N)NC(=O)[C@@H](Cc2ccc3ccccc3c2)NC(=O)[C@H](CCCNC(=N)N)NC(=O)[C@H](CCCNC(=N)N)NC(=O)[C@H](CCC(N)=O)NC(=O)C[C@@H](CCc2ccccc2)NC(=O)[C@@H]2CCCCN2C(=O)C(=O)C(C)(C)COC1=O | K-Ras G12V-RalGDS interaction | protein-protein interaction, inhibitor, bead binding | – | 10 µM, 60 min, with: 0.15 µM labelled K-Ras G12V | – | inhibition | inhibited |
| CC(=O)N1CCC[C@H]1C(=O)N[C@@H](CC(=O)O)C(=O)N[C@H]1CSSC[C@@H](C(=O)N[C@H](C(=O)N[C@@H](Cc2ccccc2)C(=O)N[C@@H](Cc2c[nH]cn2)C(N)=O)[C@@H](C)O)NC(=O)[C@H](Cc2c[nH]c3ccccc23)NC(=O)[C@H](C(C)C)NC(=O)[C@H](CC(C)C)NC(=O)[C@H](CCC(=O)O)NC(=O)CNC(=O)[C@H](CCCCN)NC(=O)[C@H](Cc2c[nH]cn2)NC(=O)[C@H](Cc2ccc(O)cc2)NC(=O)[C@H](C)NC1=O | IGHG1 | binding, SPR | – | pH 7.4, with: immobilized Herceptin | – | Kd | 256 ± 11 nM |
| O=P(O)(O)C(F)(F)c1ccc2occc2c1 | PTPN1 (Homo sapiens, UniProt P18031) | – | – | pH 7 | – | IC50 | > 500 µM |
| CC(=O)NCC(=O)N1CCC[C@H]1C(=O)N[C@@H](CC(=O)O)C(=O)N[C@H]1CSSC[C@@H](C(=O)N[C@H](C(=O)N[C@@H](C)C(=O)N[C@@H](Cc2c[nH]cn2)C(N)=O)[C@@H](C)O)NC(=O)[C@H](Cc2c[nH]c3ccccc23)NC(=O)[C@H](C(C)C)NC(=O)[C@H](CC(C)C)NC(=O)[C@H](CCC(=O)O)NC(=O)CNC(=O)[C@H](CCCCN)NC(=O)[C@H](Cc2c[nH]cn2)NC(=O)[C@H](Cc2ccc(O)cc2)NC(=O)[C@H](C)NC1=O | IGHG1 | binding, SPR | – | pH 7.4, with: immobilized Herceptin | – | Kd | 950 ± 4 nM |
| C=CC[N+](C)(C)c1ccc(CCC(=O)CCc2ccc([N+](C)(C)CC=C)cc2)cc1 | ACHE (Homo sapiens, UniProt P22303) | enzyme activity, inhibitor, Ellman | – | – | – | IC50 | 0.033 µM |
